Measurements pooled from the literature.
Every numbered part comes from another study and shows a few of its results, in no order. Changes are numbered by the printed parent chain.

Set 1 — method: universal PBM; form: double-stranded DNA, one strand shown; sample: in vitro; concentration: not given; reading: higher = stronger binding; endpoint: E-score
Target: Sal-like protein 4, full length isoform B (SALL4, Homo sapiens, UniProt Q9UJQ4-2, residues 1-616)
Notes: 8-mer, flanks averaged, mean of replicates
AATAAATT: 0.406
AGGGGGTC: -0.23
GTCAGATA: 0.0621
CCTATAGA: 0.0867
GCTCGCTA: -0.222
CAACACTA: 0.0546
GCCTTAGC: -0.164
GAAGTCAA: -0.0645
AACAGGAC: -0.144
GAACGTCC: -0.107
GACTACAC: 0.205
GTTTAAAA: 0.145
GCCCCGAC: -0.29
CCGTGCAC: -0.154
CAACTGCG: -0.237
AGCATTTA: 0.114
CCAATGTC: 0.00216
GAGAGTCA: 0.0576
GTCCCCAA: -0.0774
ACGGCATG: -0.0131

Set 2 — target: CCNB3, cyclin fold, Cln2 fusion (human); method: yeast growth competition, sequencing; sample: yeast; notes: weak parent motif; baseline: not given; reading: higher = stronger binding; endpoint: normalised enrichment score
Starting sequence: E2F3 docking peptide (human); PPAKRRLELGESG; partner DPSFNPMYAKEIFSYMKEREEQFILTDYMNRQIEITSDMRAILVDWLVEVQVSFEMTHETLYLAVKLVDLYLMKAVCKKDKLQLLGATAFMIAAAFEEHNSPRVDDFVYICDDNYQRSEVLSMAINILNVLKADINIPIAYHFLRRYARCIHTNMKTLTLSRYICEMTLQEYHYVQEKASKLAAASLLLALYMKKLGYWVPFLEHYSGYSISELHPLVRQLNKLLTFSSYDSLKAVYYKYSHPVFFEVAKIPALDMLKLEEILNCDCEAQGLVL
PPAKRRLEAGESG [L9A]: 0.35
PPAKRALELGESG [R6A]: 0.483
PPAKRRLELGEAG [S12A]: 0.232
PPAKRRLEFGESG [L9F]: 1.66
PPAKRRLELAESG [G10A]: 0.456
PPAKRRAELGESG [L7A]: 0.102
PPAKRRLELGESA [G13A]: -0.195

Set 3 — method: RNA Bind-n-Seq; form: RNA; sample: in vitro; concentration: 365 nM; baseline: no-protein control; reading: higher = stronger binding; endpoint: RBNS enrichment (R)
Target: RNA binding protein fox-1 homolog 2, RRM domain, GST-SBP tag (RBFOX2, Homo sapiens, UniProt O43251-10, residues 100-194)
Notes: natural RNA segment, single round, ends assumed
Construct (chain): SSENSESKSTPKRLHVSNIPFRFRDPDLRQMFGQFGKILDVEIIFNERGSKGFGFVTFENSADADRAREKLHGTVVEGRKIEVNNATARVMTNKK
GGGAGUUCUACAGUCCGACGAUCGCCAGACUGCCUCACCCUCUGCCCUAAUCAGCAGGGUGGGCCUGCCUUUUGCUAAGCGAUCUCUAUGCCUGGGAUGCCCUUUAUUCCAGGAGGCAUCAAGCCUCUAAAGAUGGAAUUCUCGGGUGCCAA: 0.344
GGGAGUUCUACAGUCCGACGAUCUAGUAUAAUUGUUAUAUUAAGGAGUUAUUUUUUCUUAAAACAUUUUUUUUUGCUUGUUUUGGUUCUGUUCUCACUUUUAAAGGAUGCUGAGAUGGUAAUAUGACUCUCCAUGGAAUUCUCGGGUGCCAA: 0.581
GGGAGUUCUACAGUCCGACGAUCACAGAAAGACAGAUCACAGGUACAGGGAUGAGGACACCGGCUCUGACCAGGAGUUUGGGGAGCUUCAGGACAUUGCUGUGCUUUGGGGAUUCCCUCCACAUGCUGCACGCUGGAAUUCUCGGGUGCCAA: 2.25
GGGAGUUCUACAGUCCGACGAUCCUCAGGCUAUGUAAGUCUGAAGUACUGUUCUUCUCCACUAAGUAAUACCCAACUAAUUUCCAUUUAAAAGUAUUCCAAAAGCAGCAUUUACCAACAAUUUUUUUAGAUUGUGGAAUUCUCGGGUGCCAA: 2.12
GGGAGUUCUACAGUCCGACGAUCCCCAGGAGGGAGCGCCAUCAGAACCCAGGGAAUCUUUCUGAAGCCACACUCAUCUGACACACGUACACUUAGACCUGUCUCUUCUUUUGCUUUUCAAUUUUGGAAAGGGAUGGAAUUCUCGGGUGCCAA: 0.476
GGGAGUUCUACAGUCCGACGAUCUUCAGCAUGCCAUUUCUGACUGGCACAUCUCGUGAAGUUUCAUAGAAACAAGGAGUUGGCAUCUUGGAUCUCAGAAUGGCCUGGAAACGGAUGGCCUCUACGCUGUUCCAUGGAAUUCUCGGGUGCCAA: 7.65
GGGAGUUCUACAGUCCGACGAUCAGUGAUGAAUUUAAGAGAGUUUUAACAUGUCAAAUUUGAAGCCAAUUCAGUAUCCUUAUUUGUUCCAAGACUCUUAACCAAUACUGUGAUAUAAAGUUAGGAUUUGGGAAUGGAAUUCUCGGGUGCCAA: 0.387
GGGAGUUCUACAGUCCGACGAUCGUCUCCCAUCAAGACUACCUCAUAGUCCAGUAGAUCCACUCCGUGACCAAGGACAUCAUGCUCUGUAUUUGACAGUAAAGUUUUACCUUAAAAAUGAGACCCCCAACUACUGGAAUUCUCGGGUGCCAA: 0.389
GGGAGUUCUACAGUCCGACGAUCAACAUUUUGGAUUUUCAUAUGUGUCUGAUAAGUGGUUGAAUAGUCGUUUGGCGCUGUUGUAUGGUGUGAUUGUCAGUGUAUGGUGUCACUUCCUAUAGCCAGCCAGCAUAUGGAAUUCUCGGGUGCCAA: 0.291
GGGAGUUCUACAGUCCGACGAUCUUAUUGUGGAGCAUAGGAAUUGCCCCCCUCCAGGCUUCACCCUCCCUGCCUAAGCAGGGUGGGGGCAGAGCCAUGACAUUUUUGGUUUAAAGGAGCCUUCUCAUCUCUGGUGGAAUUCUCGGGUGCCAA: 0.156
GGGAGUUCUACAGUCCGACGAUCUCUGCUUUCCUAUGACUUCUGCCUACUGGGUCUUGUUUUGUUCCUUGGAUCGAAACAGAACCGUUUACCCACCUUUACAAACUAGAGAAUAAAGAUUUGGUUUUAGAACUUGGAAUUCUCGGGUGCCAA: 0.215
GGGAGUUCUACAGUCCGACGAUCCCUCACCGGGAGAGCUGGGGCGCUUCGAAGAUAAUCCCUACCCUCUACAUCAAAUGCGGCUGAGGCAUUUUACAGUGGUUUGCCAUUAGCGUGUUCAUUCAGAUAAUGUUUGGAAUUCUCGGGUGCCAA: 0.237

Set 4 — method: RNA Bind-n-Seq; form: RNA; sample: in vitro; concentration: 100 nM; baseline: input RNA pool; reading: higher = stronger binding; endpoint: bound/input enrichment
Target: RING finger protein unkempt homolog, zinc fingers 1-6, SBP tag (UNK, Homo sapiens, UniProt Q9C0B0, residues 30-357)
UniProt Q9C0B0, sequence (30-357, looked up): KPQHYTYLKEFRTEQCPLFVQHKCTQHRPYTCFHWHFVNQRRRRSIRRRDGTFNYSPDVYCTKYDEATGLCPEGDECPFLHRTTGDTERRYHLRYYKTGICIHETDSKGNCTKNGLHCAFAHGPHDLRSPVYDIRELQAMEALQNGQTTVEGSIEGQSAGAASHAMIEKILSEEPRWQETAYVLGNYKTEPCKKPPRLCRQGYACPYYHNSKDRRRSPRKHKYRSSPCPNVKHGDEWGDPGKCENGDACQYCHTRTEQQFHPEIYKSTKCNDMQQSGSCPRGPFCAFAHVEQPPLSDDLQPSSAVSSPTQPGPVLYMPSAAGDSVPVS
Notes: RNA with constant flanks, vertebrate orthologous sites, ends assumed
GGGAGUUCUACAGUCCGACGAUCGCCAAACAUUUUGACUUUUUUUUUUUCUUUUUCUUUUUCUUUUUCUUUGUUUGGUAGGUCUUGUUCUGUAUACCUGCACCAUUUUAUGUCUCCUUCACUGAAGGGCUAGAGUUUAACUUUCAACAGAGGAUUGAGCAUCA: 0.598 ratio
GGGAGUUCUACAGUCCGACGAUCUUCACCACUCCUGGGUGCGUGAUUGAGGGUGAAGCAUCCACCAGCACUUCAAGGGGUCCAUAGUAUUUUUUUUUGCUGCCUCAGAGUCCCCAGAGCCUUCGAGUAGAAGUGGCAGUAGCUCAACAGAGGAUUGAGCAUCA: 1.93 ratio
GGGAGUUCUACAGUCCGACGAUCCCACUUUUUACCUUCUUAUCACCUCAGUGAGGUAAAGUCUCCUUGGCAUUUGGUUGGUACUAGAGCCAGUGAUUUCUAAGAUUUUUUUACAUUUCAUUUCUUUCACACUCAGUCAUCUUCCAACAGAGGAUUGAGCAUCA: 0.424 ratio
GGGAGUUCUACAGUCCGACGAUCAGUUUGUAUGUACAUUAUUCACAUUCCUCUCUGUUGUGUUUGGGGGAGAAAAAGACAUUUUAGCCUUUUUUAAGGUUAUUGAUUUAAUUUCAUGUUAUUUGGUUGCAUGAAGUUGCCCUUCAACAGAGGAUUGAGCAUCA: 0.478 ratio
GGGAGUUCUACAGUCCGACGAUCCAUUGUACCCUGCUGUAUAAUAAACAAUCUUAGACAUUUAUCAACUGUUGAUACAAAUGUUAGUUCCUAACCACUUUUUAUAUAUGUUUUAAAUUUUUGAAAUUCAAGUGUACCUGCCAUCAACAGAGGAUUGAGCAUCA: 1.19 ratio
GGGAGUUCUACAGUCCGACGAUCUUGGGACUAGCUCUCCAAAUAGAAACAGUAGUAAAAAAAAUAAGCAAAAUGAUAUUUGUAUAGAAAAAACAGAAGUUAAAUCAUGCAAGGUAAAUGCUGCCAGUGUUCCAGGCUCUAAAGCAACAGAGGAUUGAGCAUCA: 3.29 ratio
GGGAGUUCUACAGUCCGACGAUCUUUUAUUGAUCAGGUCUGUAAAUGUAUGCUAAGAAAAUCAGAGUUUAUUUAUGAACAGAAUAGUAUAUUUAAAAAAAAAGUUUUUCUUCAUUAAUGUAGUGGUAUGCAUUCAGUAAACUCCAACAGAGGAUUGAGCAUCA: 0.522 ratio
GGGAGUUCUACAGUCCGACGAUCAUUUAGAAGCUUAAUAAAUUGCUCCAAGAUUUCUAAAGUUGGUUUUGUAAGAUCAGACCAUAGGUUGGUGUUCUCUUAAGCUUGUGUACUCUGUCCAACGUCACAUUUUUAAAAGCGUUCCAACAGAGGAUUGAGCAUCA: 0.336 ratio
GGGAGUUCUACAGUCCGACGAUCCUGGGAAAAGUUCUUCAAGUGGGAGCAGUUUAAAAAAGAAUAAACAAAAUGCUGUUUCUCCUGAAAAGUCAGGAGAAAAUAAAUCAUGUAAGACAGACAGUUGUACUCCUGGAUGUACAACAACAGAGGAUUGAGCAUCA: 0.48 ratio
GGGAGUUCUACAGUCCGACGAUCGCACUCGCUGUGCAAAUUUCACAACACUGAAUGCAAAGCAGUACUUUUCCUAGUCACAGUAAGGUAGCUGUAGGGCUGUACCGCCAUGGGGUUACUCAUGUGCCGGUUUUGAAAGUGUACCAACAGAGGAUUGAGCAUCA: 0.223 ratio
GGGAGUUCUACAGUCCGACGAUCAGUCCCCUGGGCCGGGACAGAUUUUUUUUUAACGUCUUGAAACUUAAAACUCUGUGCUUGUAGGAGACUGUAACCUUUAAUUUUUUUUUUUUUUUUUAAACAAACAACCUCCACCUCCAGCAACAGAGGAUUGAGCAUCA: 2.24 ratio

Excerpt of the above (set 4):
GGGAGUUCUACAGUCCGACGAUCUUGGGACUAGCUCUCCAAAUAGAAACAGUAGUAAAAAAAAUAAGCAAAAUGAUAUUUGUAUAGAAAAAACAGAAGUUAAAUCAUGCAAGGUAAAUGCUGCCAGUGUUCCAGGCUCUAAAGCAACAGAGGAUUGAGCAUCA: 3.29 ratio
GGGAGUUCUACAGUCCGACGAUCUUUUAUUGAUCAGGUCUGUAAAUGUAUGCUAAGAAAAUCAGAGUUUAUUUAUGAACAGAAUAGUAUAUUUAAAAAAAAAGUUUUUCUUCAUUAAUGUAGUGGUAUGCAUUCAGUAAACUCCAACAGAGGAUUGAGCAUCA: 0.522 ratio
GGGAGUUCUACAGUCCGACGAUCAUUUAGAAGCUUAAUAAAUUGCUCCAAGAUUUCUAAAGUUGGUUUUGUAAGAUCAGACCAUAGGUUGGUGUUCUCUUAAGCUUGUGUACUCUGUCCAACGUCACAUUUUUAAAAGCGUUCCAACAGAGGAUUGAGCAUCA: 0.336 ratio
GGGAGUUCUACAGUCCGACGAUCCUGGGAAAAGUUCUUCAAGUGGGAGCAGUUUAAAAAAGAAUAAACAAAAUGCUGUUUCUCCUGAAAAGUCAGGAGAAAAUAAAUCAUGUAAGACAGACAGUUGUACUCCUGGAUGUACAACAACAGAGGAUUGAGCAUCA: 0.48 ratio
